Published values gathered from unrelated publications.
Compare with care: the assays were run in different laboratories. Values joined by “and” are separate records of one study, mostly repeats; a detail may differ. ± marks the error that the study gave.
ADRA1A: Alpha-1A adrenergic receptor (ADRA1A, Homo sapiens, UniProt P35348)
CASP8: Caspase-8 (CASP8, Homo sapiens, UniProt Q14790)
MAPK8: Mitogen-activated protein kinase 8 (MAPK8, Homo sapiens, UniProt P45983)

For `CC(=O)N[C@@H](CC(=O)O)C(=O)N[C@@H](C)C(=O)N[C@@H](Cc1ccc(N)cc1)C(=O)N[C@@H](CC(=O)O)C(=O)COC(=O)c1c(C)cccc1C`, the kinact/KI was 46000 M⁻¹ s⁻¹ (Caspase-10 (CASP10, Homo sapiens, UniProt Q92851); enzyme activity, inhibitor).
`COc1cc(/C=C/c2ccc(O)cc2)cc(OC)c1`: “cooperativity factor σ” 0.48 (O-methyltransferase (Sorghum bicolor, UniProt A0A1B6PFV1); biolayer interferometry; added: SAM+).
The binding stoichiometry of `CC(/C=C/C(=O)NO)=C\[C@@H](C)C(=O)c1ccc(N(C)C)cc1` is reported as 0.85 (HDAC8 (Homo sapiens, UniProt Q9BY41); ITC; Hepes buffer; concentration not given, pH 7.5).
`CC(C)Oc1cc(Cl)ccc1CNc1cc(-c2ccccc2)nc2ncnn12` has a cAMP luminescence of 3590 a.u. and 5440 a.u. and 2200 a.u. and 4180 a.u. and 6570 a.u. and 6940 a.u. and 3530 a.u. (GPR3 (Homo sapiens, UniProt P46089); cAMP reporter; human cells; 3 µM; higher is more cAMP).
`CC[C@H](C)[C@@H]1NC(=O)[C@H](Cc2ccccc2)NC(=O)[C@H](CCC(=O)O)NC(=O)[C@H](CCCNC(=N)N)NC(=O)CNC(=O)[C@@H](NC(=O)[C@H](CC(C)C)NC(=O)[C@H](CCCNC(=N)N)NC(=O)[C@@H](NC(=O)CNC(=O)[C@H](Cc2ccc(O)cc2)NC(=O)[C@@H]2CCCN2C(=O)[C@H](C)NC(=O)[C@H](C)NC(=O)[C@@H](N)CCCNC(=N)N)C(C)C)CSSC[C@@H]2NC(=O)[C@@H](NC(=O)[C@H](CO)NC(=O)[C@H](CO)NC(=O)[C@H](CO)NC(=O)[C@H](CC(C)C)NC(=O)CNC(=O)[C@H](C)NC(=O)[C@H](CC(C)C)NC(=O)[C@@H](NC(=O)[C@@H](N)CC(=O)O)C(C)C)CSSC[C@H](NC(=O)CNC(=O)[C@H](Cc3c[nH]c4ccccc34)NC(=O)[C@H](CCCCN)NC2=O)C(=O)N[C@@H](CO)C(=O)N[C@@H](CCCCN)C(=O)N[C@@H](CO)C(=O)N[C@@H](CCC(=O)O)C(=O)N[C@@H]([C@@H](C)CC)C(=O)N[C@@H](CO)C(=O)N[C@@H](CO)C(=O)N[C@@H](CC(C)C)C(=O)N[C@H](C(=O)O)CSSC[C@@H](C(=O)NCC(=O)NCC(=O)N[C@@H](CO)C(=O)N[C@@H](CCCNC(=N)N)C(=O)N[C@@H](Cc2c[nH]c3ccccc23)C(=O)O)NC(=O)[C@H]([C@@H](C)O)NC(=O)[C@H](Cc2ccccc2)NC(=O)[C@H]([C@@H](C)CC)NC(=O)[C@H](C(C)C)NC(=O)[C@H](C)NC(=O)[C@H](CCCNC(=N)N)NC1=O`: “change in Emax” -57.6% and -52.7% and -68.6% (RXFP4 (Homo sapiens, UniProt Q8TDU9, W279A); W279A mutant; reference: wild type).
`Cc1ncsc1-c1ccc(CNC(=O)[C@@H]2C[C@@H](O)CN2C(=O)[C@@H](NC(=O)COCC(C)(COCCOCCOCCNC(=O)C[C@@H]2N=C(c3ccc(Cl)cc3)c3c(sc(C)c3C)-n3c(C)nnc32)COCCOCCOCCNC(=O)C[C@@H]2N=C(c3ccc(Cl)cc3)c3c(sc(C)c3C)-n3c(C)nnc32)C(C)(C)C)cc1` gave a % Rmax of 48 ± 6% (BRD4/VHL, BD1 (Homo sapiens, UniProt O60885+P40337); ternary complex binding, SPR multi-cycle kinetics; added: BRD4 bromodomains).
`CC[C@H](C)[C@H](NC(=O)[C@@H](NC(=O)[C@@H](NC(=O)[C@@H](NC(=O)[C@@H](N)CCCCN)C(C)C)C(C)C)C(C)C)C(=O)N[C@H](C(N)=O)[C@@H](C)O` gave a ThT fluorescence of 110 ± 4% (Microtubule-associated protein tau, PHF6* peptide (MAPT, Homo sapiens, UniProt P10636); fibril formation, ThT fluorescence; 0.1-fold of peptide, pH 7.4, added: Ac-PHF6* 25 µM, heparin; reference: untreated).
`Cc1cc(NC(=O)[C@H](O)c2cc(F)cc(F)c2)ccc1-c1cnc(N)c(C(=O)NC(C)C)c1` gave a remaining binding of 75% (MERTK (Homo sapiens, UniProt Q12866); binding, competition with immobilised ligand; 0.1 µM).
`C=C1C(=O)C2(C(=O)N3CCOCC3)CC(=O)CC1C2` (racemic) has a kinact/KI of 16 M⁻¹ s⁻¹ (PTPN11 (Homo sapiens, UniProt Q06124); enzyme activity, covalent inhibitor; added: pNPP substrate).
For `Nc1c(NCO)c2ccccc2oc1=O`, the agonist activity was 3.74 ± 0.35% (ADRA1A; calcium mobilization, agonist; COS-7; 500 µM; reference: 3 µM ionomycin).
For `CCCCCC=CC=C1C(=O)C=CC1CC=CCCCC(=O)O` (centres unmarked), “isoTOP-ABPP competition ratio” read 7.4 (Enoyl-CoA delta isomerase 2 (ECI2, Homo sapiens, UniProt O75521); competitive isoTOP-ABPP, refers to: PECI cysteine peptide; proteome, soluble, MDA-MB-231; 100 µM, added: iodoacetamide probe; reference: DMSO over compound-treated, higher = stronger cysteine blockade).
For `CCN(CC)C(CO)c1cccc2c(C)c(C)oc12` (centres unmarked), the fold change was 0.858 and 0.959 and 0.85 and 0.777 and 0.885 and 0.974 (LPAR1 (Homo sapiens, UniProt Q92633, W271A); G-protein dissociation, agonist, NanoBiT; HEK-293T; 100 nM, W271A mutant; reference: baseline luminescence).
With `CC(=O)N[C@@H](CO)C(=O)N[C@@H](Cc1ccccc1)C(=O)N[C@@H](C)C(=O)N[C@@H](CC(=O)O)C(=O)COC(=O)c1c(C)cccc1C` the kinact/KI was 502000 M⁻¹ s⁻¹ (CASP8; enzyme activity, inhibitor).
Under “ΔΔG bond formation contribution”, `COC(=O)[C@@]1(C(C)C)C=C(C(=O)Nc2cccc(C(=O)Nc3ccc(Nc4nccc(-c5cccnc5)n4)c(C)c3)c2)C(=O)CC1` is recorded as -2.33 kcal/mol (MAPK8; SPR two-step binding model; reversible bond formation).
With `O=C1c2sc(-c3ccc(N4CCC(CO)CC4)nc3F)nc2CCN1c1cccnc1` the specific binding was 0.225 nM and 0.286 nM and 0.194 nM (TAR DNA-binding protein 43, aggregated (TARDBP, Homo sapiens, UniProt Q13148); radioligand binding; human, FTLD-TDP type C sarkosyl-insoluble extract; 13.55 nM).
The remaining binding of `Cn1cc(-c2cc(N3CCCCS3(=O)=O)ccc2N[C@H]2CC[C@H](C)CC2)c2cc[nH]c2c1=O` (stereo in doubt) is reported as 100% (KAT2A (Homo sapiens, UniProt Q92830); binding, competition with immobilised ligand; 1 µM).
For `CCCCCCCO[C@H]1O[C@H](CO)[C@@H](O)[C@H](O)[C@@H]1O`, the ΔG was -10.1 kcal/mol (Type 1 fimbrin D-mannose specific adhesin, lectin domain (fimH, Escherichia coli K-12, UniProt P08191); binding, isothermal titration calorimetry; 15 °C, global fit of two titrations).
The DHEA metabolism of `N#Cc1ccccc1-c1coc2cc(O)ccc2c1=O` is reported as 0.17 (HSD3B1 (Homo sapiens, UniProt P14060); [3H]-DHEA conversion; LNCaP; 0.1 µM, normalized to protein, unit not given; reference: vehicle).
`CCCc1cc(=O)oc2cc(O)c(O)cc12` gave an agonist activity of 4.37 ± 2.04% (ADRA1A; intracellular Ca2+ mobilization, agonist; COS-7; 500 µM; reference: 3 µM ionomycin).
`CC(=O)N[C@@H](CC(=O)O)C(=O)N[C@@H](CCC(=O)O)C(=O)N[C@@H](CC(C)C)C(=O)N[C@@H](CC(=O)O)C(=O)COC(=O)c1c(C)cccc1C` has a kinact/KI of 798000 M⁻¹ s⁻¹ (CASP8; enzyme activity, inhibitor).
`CCCCCC(O)/C=C/C=O` (centres unmarked) — result for “isoTOP-ABPP competition ratio”: 1.3 (DEP domain-containing mTOR-interacting protein (Homo sapiens, UniProt Q8TB45); competitive isoTOP-ABPP; Ramos soluble proteome; 100 µM, 60 min, added: iodoacetamide probe; reference: DMSO over compound-treated, higher = stronger cysteine blockade).
The kinact/KI of `CCC[C@H](NC(=O)[C@H](CC(=O)O)NC(C)=O)C(=O)N1[C@H](C(=O)N[C@@H](CC(=O)O)C(=O)COC(=O)c2c(C)cccc2C)C[C@@H]2CCCC[C@@H]21` is reported as 524000 M⁻¹ s⁻¹ (CASP8; enzyme activity, inhibitor).
The Hill coefficient of `Cc1cc2nc3c(nc2cc1C)-c1ccc2[n]1[Au-]14[n]5c(ccc5-3)C=[N+]1CCC[N+]4=C2.F[P-](F)(F)(F)(F)F` is reported as 2.5 (DNA topoisomerase 1 (TOP1, Homo sapiens, UniProt P11387)).
The inhibition of `C[Si]1(C[C@H](CN)CC(=O)O)CCCC1` is reported as -12% (GALR2 (Homo sapiens, UniProt O43603); enzyme activity, inhibitor; 70 µM).
For `C#CCOC(=O)[C@@]1(C)C=C(C(=O)OC(C)(C)C)C(=O)CC1`, “normalized kinase activity” read 0.459 (MAPK8; enzyme activity, D-SENSOR; 133.3 µM, mean of replicates).
`CC(=O)N[C@@H](CC(=O)O)C(=O)N[C@@H](CC(C)C)C(=O)N[C@H](C(=O)N[C@@H](C)C(=O)N[C@@H](CC(=O)O)C(=O)COC(=O)c1c(C)cccc1C)[C@@H](C)O` gave a kinact/KI of 210000 M⁻¹ s⁻¹ (CASP8; enzyme activity, inhibitor).
With `N#CN1CC[C@H](C(=O)Nc2nc3c(s2)CN(C(=O)Cn2cc(COCCOCCOCCOCCNC(=O)CCCC[C@@H]4SC[C@@H]5NC(=O)N[C@@H]54)nn2)CC3)C1` the iBAQ abundance was 1.82e+06 and 1.19e+06 and 2.42e+06 (USP15 (Homo sapiens, UniProt Q9Y4E8); probe binding, affinity probe, neutravidin pull-down LC-MS/MS; HEK293T, cell lysate; 5 µM, 1 h, single replicate, unit not given; higher = more pulled down).
`CC(=O)N[C@@H](CC(=O)O)C(=O)N[C@@H](CCCC(=O)O)C(=O)N[C@@H](CC(C)C)C(=O)N[C@@H](CC(=O)O)C(=O)COC(=O)c1c(C)cccc1C` gave a kinact/KI of 924000 M⁻¹ s⁻¹ (CASP8; enzyme activity, inhibitor).
With `C[n+]1cn([C@@H]2O[C@H](COP(=O)(O)OP(=O)([O-])OP(=O)(O)OP(=O)(O)OC[C@H]3O[C@@H](n4cnc5c(=O)[nH]c(N)nc54)[C@H](O)[C@@H]3O)[C@@H](O)[C@H]2O)c2nc(N)nc(O)c21` the hydrolysis was 100% (DCPS (Homo sapiens, UniProt Q96C86); substrate, HPLC; concentration not given, 120 min).
